Experimental data of several laboratories.
Protocols differ between the studies behind these lines. Values joined by “and” are separate records of one study, mostly repeats; a detail may differ. ± gives the spread as reported. In brackets after ≈: the same amount, converted by molar mass.

Structure (SMILES) | organism | assay | system | setting | how to read | quantity | value
O=CCNCCOn1c(=O)n(OCCNCCO)c(=O)n(OCCNCCOn2c(=O)n(OCCNCCO)c(=O)n(OCCNCCO)c2=O)c1=O | Alternaria solani | broth microdilution |  |  |  | MLC | 32 ± 3 µg/mL (≈ 41.6 µM)
O=S(=O)(c1ccc(-c2ccc3ncnc(Nc4ccc(OCc5cccc(Br)c5)c(Cl)c4)c3c2)cc1)N1CCOCC1 | Plasmodium falciparum | parasite growth, SYBR Green fluorescence | W2, drug-resistant |  |  | EC50 | 440 nM
CN(C)c1nc(NCc2ccc(Oc3ccccc3)cc2)c(/N=N/c2ccc(Cl)cc2)c(N(C)C)n1 | Plutella xylostella | leaf dipping |  | 200 mg/L, 96 h |  | mortality | 53.3 ± 5.6%
CC[C@H](C)CCCCC(=O)N[C@@H](CCN)C(=O)N[C@H](C(=O)N[C@@H](CCN)C(=O)N[C@H]1CCNC(=O)[C@H]([C@@H](C)O)NC(=O)[C@H](CCN)NC(=O)[C@H](CCN)NC(=O)[C@H](CC(C)C)NC(=O)[C@@H](CC(C)C)NC(=O)[C@H](CCN)NC1=O)[C@@H](C)O | Escherichia coli | daily serial passaging | ATCC 8739 | highest sub-MIC, 28 days | baseline: initial MIC | MIC fold change | 2.21
Cn1ncc2c(Nc3ccccc3Cl)nc(Nc3ccccc3Cl)nc21 | HIV-1 subtype C | viral replication |  | 96 h |  | IC50 | 94.4 µM
FC(F)(F)c1cccc(CNc2nc(NC3CCN(Cc4ccccc4)CC3)c3nc[nH]c3n2)c1 | Cryptococcus neoformans | mRNA level, RNA-seq, refers to: CNAG_00388 |  | 48 µg/mL, 3 h | baseline: untreated | fold change | 1.26
CC(C)[C@H]1NC(=O)[C@H](Cc2ccccc2)NC(=O)[C@@H](C(C)C)NC(=O)[C@@H](C)NC(=O)[C@H](CO)NC(=O)[C@@H](Cc2c(-c3ccc(-c4ccc(-c5ccccc5)cc4)cc3)[nH]c3ccccc23)NC(=O)[C@@H](CO)NC1=O | Candida albicans | broth dilution |  |  |  | MIC90 | > 50 µM
CC(C)C[C@H](NC(=O)[C@H](CC(C)C)NC(=O)[C@H](CCCCN)NC(=O)[C@H](Cc1ccccc1)NC(=O)[C@@H](NC(=O)[C@H](CCCNC(=N)N)NC(=O)[C@@H](N)CCCCN)C(C)C)C(=O)N[C@@H](CCCCN)C(=O)N[C@@H](CCCNC(=N)N)C(=O)N[C@@H](Cc1ccc(O)cc1)C(=O)N[C@@H](Cc1c[nH]c2ccccc12)C(=O)N[C@@H](CCCNC(=N)N)C(=O)N[C@@H](CCC(N)=O)C(=O)N[C@@H](CC(C)C)C(=O)N[C@@H](CCCCN)C(=O)N[C@@H](CCCCN)C(=O)N1CCC[C@H]1C(=O)N[C@H](C(=O)N[C@@H](CCCNC(=N)N)C(=O)NCCOCCOCC(=O)O)C(C)C | Pseudomonas aeruginosa |  | ATCC 10145-GFP | sub-MIC, 24 h | baseline: untreated | pyocyanin production decrease | > 60%
CCOC(=O)C1(Cc2ccccc2)Oc2cc(C)ccc2N(Cc2ccccc2)C1=O (stereo not drawn) | Arabidopsis thaliana | root length, petri dish germination | Col-0, 1/2 MS medium | 50 µg/mL, 7 days, 22 °C, dark |  | inhibition | 51.2%
CCc1nn(C)c2nc(-c3ccc(C(=O)O)cc3)nc(NCc3ccccc3)c12 | Cryptosporidium parvum |  | HCT-8 | 3 x EC90, 48 h | baseline: DMSO control | parasite number | 41.2% and 51.3% and 59.4% and 31.2%
CN1CCN(c2cccc(-c3ccc4ncnc(Nc5ccc(OCc6cccc(F)c6)c(Cl)c5)c4c3)c2)CC1 | Plasmodium falciparum | parasite growth, SYBR Green | D6 | blood stage |  | EC50 | 44 nM
C[N+]1=C2C(c3ccccc3)=[N+]([O-])c3ccccc3N2CCC1 | Fusobacterium nucleatum | microbial growth |  |  |  | MIC50 | 4 µg/mL
CCOC(=O)C1(Cc2ccccc2C#N)Oc2cc(F)ccc2N(Cc2ccccc2C#N)C1=O (stereo not drawn) | Arabidopsis thaliana | stem length, petri dish germination | Col-0, 1/2 MS medium | 50 µg/mL, 7 days, 22 °C, dark |  | inhibition | 27.3%
O=S(=O)(c1ccc(-c2ccc3ncnc(Nc4ccc(OCc5ccc(F)cc5)c(Cl)c4)c3c2)cc1)N1CCOCC1 | Plasmodium falciparum | parasite growth, SYBR Green fluorescence | W2, drug-resistant |  |  | EC50 | 360 nM
Cc1cc(C(=O)Nc2nc3cccc(C)c3n2[C@H]2CCCCN(C(=O)/C=C/CN(C)C)C2)ccn1 | Trypanosoma brucei | propidium iodide flow cytometry, refers to: SubG0 phase | bloodstream CLK1 over-expression induced | concentration not given |  | cell cycle distribution | 1.5% and 3% and 1%
[O-][N+]1=C(c2ccsc2)C2=NCCCN2c2ccccc21 | Fusobacterium nucleatum | microbial growth |  |  |  | MIC50 | 0.25 µg/mL (≈ 0.882 µM)
CN(C(=O)c1ccn2ncc(-c3ccc(C(N)=O)cc3)c2c1)c1ccc(C#N)cn1 | Cryptosporidium parvum |  | UGA1 Nluc, IFN-gamma knockout C57BL/6 mice, faeces | oral, 10 mg/kg daily, 240 h post infection, treatment days 11-17 | higher means more parasites | faecal Nluc luminescence | 265000 a.u. and 9740 a.u. and 121000 a.u. and 22300 a.u. and 146000 a.u.
CCOC(=O)C1(Cc2cc(F)c(F)c(F)c2)Oc2cc(F)ccc2N(Cc2cc(F)c(F)c(F)c2)C1=O (stereo not drawn) | Arabidopsis thaliana | root length, petri dish germination | Col-0, 1/2 MS medium | 200 µg/mL, 7 days, 22 °C, dark |  | inhibition | 45.5%
CCCCCCCCCC(=O)NCCCC[C@H](NC(=O)CCCCCCCCC)C(=O)N[C@@H](CCCCNC(=O)CCCCCCCCC)C(=O)NCC(=O)NCC(=O)NCC(=O)N[C@@H](CS)C(=O)N[C@@H](CCCNC(=N)N)C(=O)N[C@@H](CCCCN)C(=O)N1CCC[C@H]1C(=O)N[C@@H](CS)C(=O)N[C@@H](CCCNC(=N)N)C(=O)N[C@@H](CCCCN)C(=O)N1CCC[C@H]1C(N)=O | Candida albicans | broth microdilution | SP 3903, RPMI-1640 | 48 h, 30 °C |  | MIC | 16 µM (≈ 30 µg/mL)
c1ccc(Nc2ncnc3ccc(-c4cccc(N5CCOCC5)c4)cc23)cc1 | Plasmodium falciparum | parasite growth, SYBR Green | D6 | blood stage |  | EC50 | 3100 nM

Structure (SMILES) | organism | assay | system | setting | how to read | quantity | value
CC(C)[C@H]1NC(=O)[C@H](Cc2ccccc2)NC(=O)[C@@H](C(C)C)NC(=O)[C@@H](C)NC(=O)[C@H](C)NC(=O)[C@@H](Cc2c(-c3ccc(-c4ccc5ccccc5c4)cc3)[nH]c3ccccc23)NC(=O)[C@@H](C)NC1=O | Candida albicans | broth dilution |  |  |  | MIC90 | > 50 µM
CS(=O)(=O)c1ccc(-c2ccc3ncnc(Nc4ccc(OCc5cccc(F)c5)c(Cl)c4)c3c2)cc1 | Plasmodium falciparum | parasite growth, SYBR Green | D6 | blood stage |  | EC50 | 120 nM
CCOC(=O)C1(Cc2ccc([N+](=O)[O-])cc2)Oc2cc(F)ccc2N(Cc2ccc([N+](=O)[O-])cc2)C1=O (stereo not drawn) | Arabidopsis thaliana | stem length, petri dish germination | Col-0, 1/2 MS medium | 50 µg/mL, 7 days, 22 °C, dark |  | inhibition | 35.1%
CCCCCCCC(=O)NCCCC[C@H](NC(=O)CCCCCCC)C(=O)N[C@@H](CCCCNC(=O)CCCCCCC)C(=O)NCC(=O)NCC(=O)NCC(=O)N[C@@H](CS)C(=O)N[C@@H](CCCNC(=N)N)C(=O)N[C@@H](CCCCN)C(=O)N1CCC[C@H]1C(=O)N[C@@H](CS)C(=O)N[C@@H](CCCNC(=N)N)C(=O)N[C@@H](CCCCN)C(=O)N1CCC[C@H]1C(N)=O | Candida albicans | broth microdilution | CGMCC 2.209, RPMI-1640 | 48 h, 30 °C |  | MIC | 8 µM (≈ 14.3 µg/mL)
O=S(=O)(c1ccc(-c2ccc3ncnc(Nc4ccc(OCc5ccccc5F)c(Cl)c4)c3c2)cc1)N1CCOCC1 | Plasmodium falciparum | parasite growth, SYBR Green fluorescence | C235 (TM91C235), drug-resistant |  |  | EC50 | 220 nM
C[C@H](NC(=O)[C@@H](O)c1cc(F)cc(F)c1)C(=O)N[C@@H]1C(=O)N(C)c2ccccc2-c2ccccc21 | dengue virus 2 | viral replication | Huh-7.5.1 overexpressing SPP |  | baseline: SPP over control | EC50 fold increase | > 10 fold
C[C@H]1[C@@H](OCc2cn(-c3cc4ccc(O)cc4oc3=O)nn2)O[C@@H]2O[C@@]3(C)CC[C@H]4[C@H](C)CC[C@@H]1[C@@]24OO3 | Plasmodium berghei |  | NK65/GFP, infected mice | oral gavage, 65 µmol/kg once daily, 96 h dosing period |  | cured mice | 0%
CC(=O)c1c(O)c(C)c(O)c2c1OC1=CC(=O)C(=C(C)NCCCC(=O)OC3OC4OC5(C)CCC6C(C)CCC(C3C)C46OO5)C(=O)C12C (stereo not drawn) | Plasmodium berghei |  | ANKA GFP, NMRI mouse | oral, 4 x 30 mg/kg |  | mean survival time | 16 days
[O-][N+]1=C(c2ccccc2)C2=NCCN2c2ccccc21 | Fusobacterium nucleatum |  |  |  |  | MIC90 | 0.125 µg/mL
CCN(CC)CCO.O=C(O)C(Cl)Cl | Xanthium sibiricum |  |  | 15 mg/mL, 21 days, post-emergence, greenhouse |  | herbicidal inhibition | 62%
CCOC(=O)C1(CC)Oc2cc(F)ccc2N(CC)C1=O (stereo not drawn) | Arabidopsis thaliana | stem length, petri dish germination | Col-0, 1/2 MS medium | 200 µg/mL, 7 days, 22 °C, dark |  | inhibition | 100%
CC[C@H](C)[C@H](NC(=O)[C@H](CCCCN)NC(=O)[C@H](CCCNC(=N)N)NC(=O)CNC(=O)[C@@H](NC(=O)CN)C(C)C)C(=O)NCC(=O)N[C@@H](Cc1ccccc1)C(=O)N[C@@H](CCCCN)C(=O)N[C@@H](CCCCN)C(=O)N[C@H](C(=O)N[C@@H](CC(C)C)C(=O)N[C@@H](Cc1ccccc1)C(=O)N[C@@H](Cc1ccccc1)C(=O)N[C@@H](Cc1ccccc1)C(=O)N[C@@H](CCCCN)C(=O)N[C@@H](CCCCN)C(=O)NCC(=O)N[C@@H](Cc1ccc(O)cc1)C(=O)N[C@@H](CCC(=O)O)C(=O)N[C@@H](CCCCN)C(=O)N[C@@H](C)C(=O)N[C@@H](CC(N)=O)C(=O)NCC(=O)NCC(=O)N[C@@H](Cc1ccccc1)C(=O)N[C@H](C(=O)N[C@@H](CCCCN)C(=O)N[C@@H](CCCCN)C(=O)N[C@@H](CCCCN)C(=O)NCC(=O)O)C(C)C)C(C)C | Listeria monocytogenes | broth microdilution, agar subculture | ATCC 7644, CaMHB |  |  | MBC | > 1020 µM
CCOC(=O)C1(C)Oc2cc(F)ccc2N(C)C1=O (stereo not drawn) | Arabidopsis thaliana | root length, petri dish germination | Col-0, 1/2 MS medium | 50 µg/mL, 7 days, 22 °C, dark |  | inhibition | 72.4%
CC(=O)c1c(O)c(C)c(O)c2c1OC1=CC(=O)C(=C(C)NCCCCOC3OC4OC5(C)CCC6C(C)CCC(C3C)C46OO5)C(=O)C12C (mixture of isomers) | Plasmodium berghei |  | ANKA GFP, NMRI mouse | oral, 4 x 3 mg/kg, day 4 post infection |  | parasitaemia inhibition | 0%
Fc1cccc(COc2ccc(Nc3ncnc4ccc(-c5ccc(N6CCCCC6)cc5)cc34)cc2Cl)c1 | Plasmodium falciparum | parasite growth, SYBR Green fluorescence | W2, drug-resistant |  |  | EC50 | 1200 nM
CCOC(=O)C1(Cc2ccc(-c3ccccc3)cc2)Oc2cc(F)ccc2N(Cc2ccc(-c3ccccc3)cc2)C1=O (stereo not drawn) | Arabidopsis thaliana | root length, petri dish germination | Col-0, 1/2 MS medium | 200 µg/mL, 7 days, 22 °C, dark |  | inhibition | 77.2%
CC(NC(=O)c1cccc(C(c2ccccc2)N2C(=N)NC(C)(C(C)C)CC2=O)c1)c1ccccc1 (stereo not drawn) | Plasmodium falciparum | parasite growth | CAM3 REV |  |  | EC50 | 13.7 nM
Cc1cc(-c2ccc3ncnc(Nc4ccc(OCc5cccc(F)c5)c(Cl)c4)c3c2)cnc1N1CCOCC1 | Plasmodium falciparum | parasite growth, SYBR Green fluorescence | W2, drug-resistant |  |  | EC50 | 540 nM
C#CCN1C(=O)C(CC#C)(C(=O)OCC)Oc2ccccc21 (stereo not drawn) | Arabidopsis thaliana |  | Col-0, seed germination, dark | 200 µg/mL, 7 days, 22 °C |  | root length inhibition | 100%

For quick reference, copied from above:
Structure (SMILES) | organism | assay | system | setting | how to read | quantity | value
FC(F)(F)c1cccc(CNc2nc(NC3CCN(Cc4ccccc4)CC3)c3nc[nH]c3n2)c1 | Cryptococcus neoformans | mRNA level, RNA-seq, refers to: CNAG_00388 |  | 48 µg/mL, 3 h | baseline: untreated | fold change | 1.26
CC[C@H](C)[C@H](NC(=O)[C@H](CCCCN)NC(=O)[C@H](CCCNC(=N)N)NC(=O)CNC(=O)[C@@H](NC(=O)CN)C(C)C)C(=O)NCC(=O)N[C@@H](Cc1ccccc1)C(=O)N[C@@H](CCCCN)C(=O)N[C@@H](CCCCN)C(=O)N[C@H](C(=O)N[C@@H](CC(C)C)C(=O)N[C@@H](Cc1ccccc1)C(=O)N[C@@H](Cc1ccccc1)C(=O)N[C@@H](Cc1ccccc1)C(=O)N[C@@H](CCCCN)C(=O)N[C@@H](CCCCN)C(=O)NCC(=O)N[C@@H](Cc1ccc(O)cc1)C(=O)N[C@@H](CCC(=O)O)C(=O)N[C@@H](CCCCN)C(=O)N[C@@H](C)C(=O)N[C@@H](CC(N)=O)C(=O)NCC(=O)NCC(=O)N[C@@H](Cc1ccccc1)C(=O)N[C@H](C(=O)N[C@@H](CCCCN)C(=O)N[C@@H](CCCCN)C(=O)N[C@@H](CCCCN)C(=O)NCC(=O)O)C(C)C)C(C)C | Listeria monocytogenes | broth microdilution, agar subculture | ATCC 7644, CaMHB |  |  | MBC | > 1020 µM
CCOC(=O)C1(Cc2ccccc2C#N)Oc2cc(F)ccc2N(Cc2ccccc2C#N)C1=O (stereo not drawn) | Arabidopsis thaliana | stem length, petri dish germination | Col-0, 1/2 MS medium | 50 µg/mL, 7 days, 22 °C, dark |  | inhibition | 27.3%
CC(=O)c1c(O)c(C)c(O)c2c1OC1=CC(=O)C(=C(C)NCCCC(=O)OC3OC4OC5(C)CCC6C(C)CCC(C3C)C46OO5)C(=O)C12C (stereo not drawn) | Plasmodium berghei |  | ANKA GFP, NMRI mouse | oral, 4 x 30 mg/kg |  | mean survival time | 16 days
